Published values from different studies.
Lines come from different studies, so protocols differ. “And” joins repeats or separate records; there may be more than shown. ± marks the error that the study gave.
rep main protease: Replicase polyprotein 1ab, main protease (rep, Severe acute respiratory syndrome coronavirus 2, UniProt P0DTD1)
Spike glycoprotein: Spike glycoprotein (Severe acute respiratory syndrome coronavirus 2, UniProt P0DTC2)

Compound | target | assay | system | conditions | scale | endpoint | value
C=C[C@@H]1C[C@]1(NC(=O)[C@@H]1C[C@@H]2CN1C(=O)[C@H](C(C)(C)C)NC(=O)O[C@@H]1C[C@H]1CCCCCc1nc3ccc(OC)cc3nc1O2)C(=O)NS(=O)(=O)C1CC1.O | rep main protease | mKate2 reporter |  | 20 µM |  | inhibition | 1.25%
Nc1ccc(C(=O)N2CC3(CCC3)C[C@H]2CNC(=O)c2cncc3ccccc23)cc1O | rep main protease | enzyme activity, inhibitor |  | 5 µM, mean of runs |  | inhibition | 28.1%
CCc1c(C(=O)C(N)=O)c2c(OCC(=O)O)cccc2n1Cc1ccccc1 | Daboia russelii venom phospholipase A2 | enzyme activity, inhibitor | KL population | 1 µM, together with: NOB substrate | reference: venom alone | remaining activity | 35.7% and 37.7% and 33.1%
CCCC[C@@H](C=O)NC(=O)[C@H](CC(C)C)NC(=O)OCc1ccccc1 | rep main protease | reporter gene (mKate2), inhibitor |  | 20 µM |  | inhibition | 1.5%
COc1cc(NS(=O)(=O)c2ccc(NC(=O)c3ccc4ccccc4c3)cc2)nc(OC)n1 | Replicase polyprotein 1ab, nsp14 N7-methyltransferase (rep, Severe acute respiratory syndrome coronavirus 2, UniProt P0DTD1) | N7-methyltransferase activity, inhibitor, Py-FLINT |  |  |  | Hill slope | 1.02 ± 0.14
O=C1CC(C(=O)N2CC3(CCC3)C[C@H]2CNC(=O)c2cncc3[nH]cnc23)CC(=O)N1 | rep main protease | enzyme activity, inhibitor |  | 5 µM, run 1 |  | inhibition | 10.9%
CC[C@H](C)[C@H](NC(=O)[C@@H]1CCCN1C(=O)[C@H](C)NC(=O)[C@@H]1CSSC[C@@H]2NC(=O)[C@H](CC(=O)O)NC(=O)[C@H](CCCNC(=N)N)NC(=O)[C@H](CCC(=O)O)NC(=O)[C@H](CCCNC(=N)N)NC(=O)CNC(=O)[C@H](CC(=O)O)NC(=O)[C@@H]3CSSC[C@H](NC(=O)[C@H](CCC(=O)O)NC(=O)[C@H](CC(C)C)NC(=O)CNC(=O)[C@H](C)NC(=O)[C@H](CSSC[C@H](NC(=O)[C@H](Cc4ccccc4)NC(=O)[C@@H](N)CO)C(=O)N[C@@H](CC(C)C)C(=O)N[C@@H](C(C)C)C(=O)N[C@@H](CCCCN)C(=O)N[C@@H](Cc4c[nH]c5ccccc45)C(=O)N[C@@H](CCCCN)C(=O)N[C@@H](CCC(N)=O)C(=O)N3)NC2=O)C(=O)N[C@@H](Cc2c[nH]c3ccccc23)C(=O)N[C@@H](CCCCN)C(=O)N[C@@H](CCCNC(=N)N)C(=O)N[C@@H](CO)C(=O)NCC(=O)N[C@@H](CC(N)=O)C(=O)N[C@@H](CCCCN)C(=O)N[C@@H](CO)C(=O)N[C@@H](CO)C(=O)N[C@@H](C(C)C)C(=O)N1)C(=O)N[C@H](C(=O)O)[C@@H](C)O | ASIC1 (Homo sapiens, UniProt P78348) | outside-out patch clamp | HEK-293T ASIC1a knockout | 10 nM, wild type | reference: no toxin | deactivation slowing | 2.6 ± 0.3 fold
C#CC1(C(=O)NC[C@H](NC(=O)c2cncc3[nH]ccc23)c2ccc3ccccc3c2)CC1 | rep main protease | enzyme activity, inhibitor |  | 5 µM, run 2 |  | inhibition | 13.9%
Nc1ncnc2c1ncn2[C@@H]1CCCN(C(=O)c2ccc(S(=O)(=O)F)cc2)C1 | cya (Bacillus anthracis, UniProt P40136) |  |  |  |  | kinact | 0.00065 s⁻¹
Cc1[nH]nc2c(C(=O)N3CCC4(CCC[C@H]4NC(=O)C4=CN=C5NNN=C5C4)CC3)cccc12 | rep main protease | enzyme activity, inhibitor |  | 5 µM, mean of runs |  | inhibition | 10%
O=C(/C=C/c1ccc(O)c2oc(-c3ccc(O)c(O)c3)cc12)O[C@H](Cc1ccc(O)c(O)c1)C(=O)O | Spike glycoprotein | binding, biolayer interferometry |  |  |  | koff | 0.00388 s⁻¹
O=C(Cc1ccccc1)Nc1nnc(CCSCCc2nnc(NC(=O)Cc3ccccc3)s2)s1 | rep main protease | reporter gene (mKate2), inhibitor |  | 20 µM |  | inhibition | -0.431%
O=C(NCCOc1cc(OCCNC(=O)OCc2cn([C@@H]3O[C@H](CO)[C@H](O[C@H]4O[C@H](CO)[C@H](O)[C@H](O)[C@H]4O)[C@H](O)[C@H]3O)nn2)cc(C(=O)O)c1)OCc1cn([C@@H]2O[C@H](CO)[C@H](O[C@H]3O[C@H](CO)[C@H](O)[C@H](O)[C@H]3O)[C@H](O)[C@H]2O)nn1 | Shiga toxin subunit B (stxB, Shigella dysenteriae, UniProt Q7BQ98) |  | Escherichia coli |  |  | Hill slope | -1.48
O=C(NC[C@@H]1Cc2ccccc2CN1c1nnnn1-c1ccccc1)c1cc[nH]c(=O)c1 | rep main protease | enzyme activity, inhibitor |  | 5 µM, run 2 |  | inhibition | 11.6%
C[C@H]1CC[C@@]2(OC1)O[C@H]1C[C@H]3[C@@H]4CC[C@@H]5C[C@@H](O[C@@H]6O[C@H](CO)[C@H](O)[C@H](O)[C@H]6O[C@@H]6O[C@H](CO)[C@@H](O)[C@H](O)[C@H]6O)CC[C@]5(C)[C@H]4CC[C@]3(C)[C@H]1[C@@H]2C | Spike glycoprotein | binding |  |  |  | kon | 33100 M⁻¹ s⁻¹
CC(C)C[C@H](NC(=O)[C@H](CCc1ccccc1)NC(=O)CN1CCOCC1)C(=O)N[C@@H](Cc1ccccc1)C(=O)N[C@@H](CC(C)C)C(=O)[C@@]1(C)CO1 | rep main protease | reporter gene (mKate2), inhibitor |  | 20 µM |  | inhibition | -0.81%
Cc1cc(O[C@@H]2O[C@H](CO)[C@@H](O)[C@H](O)[C@H]2O)c2c(c1)C(=O)c1cc(O)cc(O)c1C2=O | Spike glycoprotein | binding, biolayer interferometry |  |  |  | kon | 191 M⁻¹ s⁻¹
C[C@@]1(c2cc(-c3cncnc3)c(F)cc2F)CCSC(N)=N1 | rep main protease | reporter gene (mKate2), inhibitor |  | 20 µM |  | inhibition | 0.102%
CC(C)C[C@H](NC(=O)[C@@H](N)CO)C(=O)N[C@@H](CCC(=O)O)C(=O)N[C@H](C(=O)N[C@H](C(=O)N[C@@H](CCC(=O)O)C(=O)N[C@@H](C)C(=O)N[C@@H](CC(=O)O)C(=O)O)[C@@H](C)O)C(C)C | Transcriptional regulatory protein EmbR (embR, Mycobacterium tuberculosis, UniProt P9WGJ9) | biolayer interferometry |  |  |  | koff | 0.00089 ± 0.000123 s⁻¹
C[C@]1(C(=O)N[C@@H]2CC[C@H]3C[C@@H]2CN3C(=O)Cc2cncc(O)c2)CCc2ccccc2C1 | rep main protease | enzyme activity, inhibitor |  | 5 µM |  | inhibition | 12.2%
Cc1cc(C)c(/C=C2/C(=O)Nc3ccc(Cl)cc32)[nH]1 | rep main protease | viral replication, mKate2 reporter | SARS-CoV-2 | 20 µM |  | inhibition | -0.959%
O=C(NC[C@H](NC(=O)c1cncc2c1CCNC2=O)c1ccc2ccccc2c1)c1ccon1 | rep main protease | enzyme activity, inhibitor |  | 5 µM, run 2 |  | inhibition | 9.9%
O=C(N[C@@H](Cc1ccccc1)C(=O)O)OCc1ccccc1 | rep main protease | reporter gene (Gaussia luciferase), inhibitor |  | 20 µM |  | inhibition | 1.1%
O=C(N[C@@H]1CCCC[C@]12CCCN(C(=O)c1cc[nH]c(=O)c1)C2)c1cncc2ccccc12 | rep main protease | enzyme activity, inhibitor |  | 5 µM |  | inhibition | 10.5%
CC(C)=CCc1c(O)ccc(C(=O)/C=C/c2ccc(O)cc2)c1O | Spike glycoprotein | binding, BLI |  |  |  | koff | 0.0339 s⁻¹
C[C@@H]1Cc2ccc(C(=O)N[C@@H](Cc3ccccc3)C(=O)O)c(O)c2C(=O)O1 | porcine pancreatic lipase | substrate, HPLC fluorescence |  | pH 7.5, 37 °C, Km above tested range |  | Km | 1080 µM
O=S(=O)(F)Cc1ccccc1 | rep main protease | reporter gene (mKate2), inhibitor |  | 20 µM |  | inhibition | -0.885%
COC(=O)[C@]1(C)CC[C@]2(C(=O)O[C@@H]3O[C@H](CO)[C@@H](O)[C@H](O)[C@H]3O)CC[C@]3(C)C(=CC[C@@H]4[C@@]5(C)C[C@H](O)[C@H](O[C@@H]6OC[C@@H](O[C@@H]7O[C@H](CO)[C@@H](O)[C@H](O)[C@H]7O)[C@H](O)[C@H]6O)[C@@](C)(CO)C5CC[C@]43C)[C@H]2C1 (stereo partly shown) | Spike glycoprotein | binding, biolayer interferometry |  |  |  | koff | 1.29 s⁻¹

Some of these lines once more:
Compound | target | assay | system | conditions | scale | endpoint | value
Cc1cc(C)c(/C=C2/C(=O)Nc3ccc(Cl)cc32)[nH]1 | rep main protease | viral replication, mKate2 reporter | SARS-CoV-2 | 20 µM |  | inhibition | -0.959%
Nc1ccc(C(=O)N2CC3(CCC3)C[C@H]2CNC(=O)c2cncc3ccccc23)cc1O | rep main protease | enzyme activity, inhibitor |  | 5 µM, mean of runs |  | inhibition | 28.1%
O=C(/C=C/c1ccc(O)c2oc(-c3ccc(O)c(O)c3)cc12)O[C@H](Cc1ccc(O)c(O)c1)C(=O)O | Spike glycoprotein | binding, biolayer interferometry |  |  |  | koff | 0.00388 s⁻¹
Cc1cc(O[C@@H]2O[C@H](CO)[C@@H](O)[C@H](O)[C@H]2O)c2c(c1)C(=O)c1cc(O)cc(O)c1C2=O | Spike glycoprotein | binding, biolayer interferometry |  |  |  | kon | 191 M⁻¹ s⁻¹
